Experimental data collected from several papers.
Protocols differ between the studies behind these lines. ± gives the spread as reported.
NR3C1: Glucocorticoid receptor (NR3C1, Homo sapiens, UniProt P04150)

Sequences of proteins named here, by UniProt entry; tags and fusion partners are left off. Residues count along the entry.
UniProt P04150, whole entry: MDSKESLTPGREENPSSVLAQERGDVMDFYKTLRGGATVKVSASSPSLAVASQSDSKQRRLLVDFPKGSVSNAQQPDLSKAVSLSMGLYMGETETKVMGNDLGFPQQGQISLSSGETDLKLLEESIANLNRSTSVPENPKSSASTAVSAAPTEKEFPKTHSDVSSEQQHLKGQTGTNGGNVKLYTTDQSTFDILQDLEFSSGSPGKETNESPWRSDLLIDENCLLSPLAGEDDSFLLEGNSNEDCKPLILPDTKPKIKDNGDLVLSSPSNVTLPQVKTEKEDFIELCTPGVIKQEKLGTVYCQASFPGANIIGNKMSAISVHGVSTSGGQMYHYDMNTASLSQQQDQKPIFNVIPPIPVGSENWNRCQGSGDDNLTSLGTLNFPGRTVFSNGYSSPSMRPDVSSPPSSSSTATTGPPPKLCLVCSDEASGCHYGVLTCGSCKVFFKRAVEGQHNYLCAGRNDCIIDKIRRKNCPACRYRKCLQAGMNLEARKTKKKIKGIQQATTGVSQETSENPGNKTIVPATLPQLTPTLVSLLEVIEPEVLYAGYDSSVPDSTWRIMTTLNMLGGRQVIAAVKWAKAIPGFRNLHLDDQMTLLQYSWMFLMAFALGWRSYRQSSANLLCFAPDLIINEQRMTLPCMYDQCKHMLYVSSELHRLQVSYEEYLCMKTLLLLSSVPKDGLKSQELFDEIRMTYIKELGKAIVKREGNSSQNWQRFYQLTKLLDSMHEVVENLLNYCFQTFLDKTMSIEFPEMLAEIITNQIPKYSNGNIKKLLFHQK
UniProt Q60492, whole entry: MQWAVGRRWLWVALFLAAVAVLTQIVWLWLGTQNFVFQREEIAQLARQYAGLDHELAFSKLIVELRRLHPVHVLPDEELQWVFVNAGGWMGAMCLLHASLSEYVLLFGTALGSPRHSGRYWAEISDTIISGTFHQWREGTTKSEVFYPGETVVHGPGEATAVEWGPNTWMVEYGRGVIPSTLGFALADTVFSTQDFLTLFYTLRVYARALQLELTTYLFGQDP
UniProt Q9UPY5, whole entry: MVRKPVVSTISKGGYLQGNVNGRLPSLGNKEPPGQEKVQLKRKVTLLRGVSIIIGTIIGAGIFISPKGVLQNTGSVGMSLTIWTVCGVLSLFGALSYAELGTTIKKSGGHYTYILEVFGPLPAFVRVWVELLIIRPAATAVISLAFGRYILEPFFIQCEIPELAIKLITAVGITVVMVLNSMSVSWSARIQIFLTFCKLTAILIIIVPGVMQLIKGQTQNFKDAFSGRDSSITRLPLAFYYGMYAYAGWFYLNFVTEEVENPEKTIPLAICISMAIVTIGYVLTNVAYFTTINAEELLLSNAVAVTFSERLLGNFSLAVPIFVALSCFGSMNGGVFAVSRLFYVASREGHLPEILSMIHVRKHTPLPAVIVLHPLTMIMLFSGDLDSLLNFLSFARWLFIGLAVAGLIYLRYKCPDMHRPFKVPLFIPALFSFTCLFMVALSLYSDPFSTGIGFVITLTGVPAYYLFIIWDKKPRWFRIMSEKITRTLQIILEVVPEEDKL
UniProt Q15256, 22-657 limits assumed: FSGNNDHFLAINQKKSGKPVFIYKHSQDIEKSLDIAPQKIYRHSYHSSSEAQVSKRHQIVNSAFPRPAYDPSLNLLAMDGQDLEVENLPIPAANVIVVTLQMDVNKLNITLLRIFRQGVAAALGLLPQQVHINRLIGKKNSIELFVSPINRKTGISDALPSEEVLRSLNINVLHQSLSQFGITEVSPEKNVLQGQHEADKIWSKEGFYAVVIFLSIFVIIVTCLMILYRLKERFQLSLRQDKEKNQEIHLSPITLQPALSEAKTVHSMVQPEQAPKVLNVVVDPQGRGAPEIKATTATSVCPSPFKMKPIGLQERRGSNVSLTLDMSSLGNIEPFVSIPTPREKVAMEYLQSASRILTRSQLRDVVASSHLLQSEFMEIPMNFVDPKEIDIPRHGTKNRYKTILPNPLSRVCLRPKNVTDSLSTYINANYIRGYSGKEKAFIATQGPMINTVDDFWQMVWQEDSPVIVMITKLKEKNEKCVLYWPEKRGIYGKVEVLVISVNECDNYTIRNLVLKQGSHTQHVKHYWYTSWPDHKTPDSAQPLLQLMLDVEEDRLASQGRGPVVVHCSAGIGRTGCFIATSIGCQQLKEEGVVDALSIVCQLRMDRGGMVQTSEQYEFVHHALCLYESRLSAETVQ
UniProt Q9Y2R2, whole entry: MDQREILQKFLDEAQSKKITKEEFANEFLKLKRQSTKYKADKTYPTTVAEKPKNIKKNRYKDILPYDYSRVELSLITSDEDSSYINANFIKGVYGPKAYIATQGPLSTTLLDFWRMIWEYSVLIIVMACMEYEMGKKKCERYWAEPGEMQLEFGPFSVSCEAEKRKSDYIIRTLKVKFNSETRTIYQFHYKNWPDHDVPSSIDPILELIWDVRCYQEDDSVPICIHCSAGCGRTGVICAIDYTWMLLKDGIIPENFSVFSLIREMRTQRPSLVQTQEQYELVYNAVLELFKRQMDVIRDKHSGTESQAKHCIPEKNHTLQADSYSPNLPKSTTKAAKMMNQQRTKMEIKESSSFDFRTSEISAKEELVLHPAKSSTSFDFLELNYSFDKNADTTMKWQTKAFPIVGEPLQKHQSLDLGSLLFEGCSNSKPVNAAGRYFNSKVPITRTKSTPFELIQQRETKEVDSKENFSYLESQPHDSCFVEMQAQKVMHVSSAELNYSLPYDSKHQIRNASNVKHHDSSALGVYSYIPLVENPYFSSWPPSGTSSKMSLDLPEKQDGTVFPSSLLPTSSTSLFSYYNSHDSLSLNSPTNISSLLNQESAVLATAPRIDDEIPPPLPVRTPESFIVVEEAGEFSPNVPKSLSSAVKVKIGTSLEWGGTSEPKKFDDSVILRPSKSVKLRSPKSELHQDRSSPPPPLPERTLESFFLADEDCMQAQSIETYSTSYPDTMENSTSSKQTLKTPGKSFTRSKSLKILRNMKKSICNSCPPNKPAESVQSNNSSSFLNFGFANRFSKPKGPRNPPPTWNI
UniProt P08913, whole entry: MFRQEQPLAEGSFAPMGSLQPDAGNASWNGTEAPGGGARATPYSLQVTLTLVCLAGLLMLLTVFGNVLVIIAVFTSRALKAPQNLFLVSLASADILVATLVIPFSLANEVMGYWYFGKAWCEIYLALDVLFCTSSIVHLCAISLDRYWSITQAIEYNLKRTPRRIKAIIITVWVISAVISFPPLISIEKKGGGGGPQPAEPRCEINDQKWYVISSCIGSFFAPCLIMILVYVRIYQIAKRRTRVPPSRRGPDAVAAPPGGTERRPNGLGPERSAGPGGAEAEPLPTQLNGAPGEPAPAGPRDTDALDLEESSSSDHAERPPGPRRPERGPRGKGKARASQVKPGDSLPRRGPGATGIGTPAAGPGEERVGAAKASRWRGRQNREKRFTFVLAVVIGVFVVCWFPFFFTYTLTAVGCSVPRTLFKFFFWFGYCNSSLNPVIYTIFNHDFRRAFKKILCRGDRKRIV
UniProt Q9NRA0, whole entry: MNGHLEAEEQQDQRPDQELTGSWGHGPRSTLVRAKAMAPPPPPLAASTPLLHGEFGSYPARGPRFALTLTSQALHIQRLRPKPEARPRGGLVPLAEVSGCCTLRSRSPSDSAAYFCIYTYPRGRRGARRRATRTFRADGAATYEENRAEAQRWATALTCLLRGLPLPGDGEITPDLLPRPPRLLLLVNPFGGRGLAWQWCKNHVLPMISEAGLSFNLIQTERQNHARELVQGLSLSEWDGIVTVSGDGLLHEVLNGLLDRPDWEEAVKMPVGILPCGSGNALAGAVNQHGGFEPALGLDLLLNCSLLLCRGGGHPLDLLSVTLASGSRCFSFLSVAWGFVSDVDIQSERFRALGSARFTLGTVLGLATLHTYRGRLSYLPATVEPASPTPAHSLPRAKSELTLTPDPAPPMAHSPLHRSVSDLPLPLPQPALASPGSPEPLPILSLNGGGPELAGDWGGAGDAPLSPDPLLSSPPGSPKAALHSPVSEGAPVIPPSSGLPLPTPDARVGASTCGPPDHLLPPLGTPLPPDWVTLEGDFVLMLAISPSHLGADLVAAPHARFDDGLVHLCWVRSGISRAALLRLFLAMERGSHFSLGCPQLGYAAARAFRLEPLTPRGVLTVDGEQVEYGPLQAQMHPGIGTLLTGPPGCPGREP
UniProt P10688, 11-140 limits assumed: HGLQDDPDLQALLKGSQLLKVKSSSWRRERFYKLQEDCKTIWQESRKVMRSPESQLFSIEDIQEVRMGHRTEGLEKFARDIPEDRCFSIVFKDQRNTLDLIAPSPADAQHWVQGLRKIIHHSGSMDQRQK
UniProt P18031, whole entry: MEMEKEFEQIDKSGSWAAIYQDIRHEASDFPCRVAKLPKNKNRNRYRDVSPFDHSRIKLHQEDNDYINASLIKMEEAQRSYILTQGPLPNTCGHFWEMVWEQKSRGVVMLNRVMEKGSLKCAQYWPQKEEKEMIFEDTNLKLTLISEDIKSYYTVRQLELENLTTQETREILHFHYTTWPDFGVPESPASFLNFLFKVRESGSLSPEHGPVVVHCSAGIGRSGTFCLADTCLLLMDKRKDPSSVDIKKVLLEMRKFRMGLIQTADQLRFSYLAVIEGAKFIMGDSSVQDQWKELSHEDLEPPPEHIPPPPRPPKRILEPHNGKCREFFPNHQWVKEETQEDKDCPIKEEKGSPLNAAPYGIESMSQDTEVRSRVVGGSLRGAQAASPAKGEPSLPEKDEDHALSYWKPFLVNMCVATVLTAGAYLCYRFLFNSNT
UniProt P41743, whole entry: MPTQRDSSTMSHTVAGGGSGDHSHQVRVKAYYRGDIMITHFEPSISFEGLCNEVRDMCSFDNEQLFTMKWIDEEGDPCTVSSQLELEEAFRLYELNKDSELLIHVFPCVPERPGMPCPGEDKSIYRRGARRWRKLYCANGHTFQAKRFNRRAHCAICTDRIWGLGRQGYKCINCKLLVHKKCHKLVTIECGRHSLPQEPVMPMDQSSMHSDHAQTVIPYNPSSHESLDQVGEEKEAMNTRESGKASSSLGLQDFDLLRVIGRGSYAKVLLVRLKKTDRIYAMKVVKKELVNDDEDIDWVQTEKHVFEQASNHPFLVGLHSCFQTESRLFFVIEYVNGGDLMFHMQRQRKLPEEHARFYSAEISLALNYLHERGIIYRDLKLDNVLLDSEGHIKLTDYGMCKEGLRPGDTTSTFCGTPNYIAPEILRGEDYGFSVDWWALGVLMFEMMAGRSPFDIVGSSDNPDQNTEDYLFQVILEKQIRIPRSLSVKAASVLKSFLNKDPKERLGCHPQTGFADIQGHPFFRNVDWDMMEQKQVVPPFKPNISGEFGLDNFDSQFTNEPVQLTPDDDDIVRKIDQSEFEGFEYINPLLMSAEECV
UniProt Q99720, whole entry: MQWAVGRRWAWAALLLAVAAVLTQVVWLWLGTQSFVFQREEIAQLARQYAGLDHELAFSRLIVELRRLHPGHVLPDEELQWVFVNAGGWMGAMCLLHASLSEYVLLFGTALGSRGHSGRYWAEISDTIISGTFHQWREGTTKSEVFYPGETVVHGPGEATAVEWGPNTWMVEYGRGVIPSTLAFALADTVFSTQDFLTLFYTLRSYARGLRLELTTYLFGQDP
UniProt Q92731, whole entry: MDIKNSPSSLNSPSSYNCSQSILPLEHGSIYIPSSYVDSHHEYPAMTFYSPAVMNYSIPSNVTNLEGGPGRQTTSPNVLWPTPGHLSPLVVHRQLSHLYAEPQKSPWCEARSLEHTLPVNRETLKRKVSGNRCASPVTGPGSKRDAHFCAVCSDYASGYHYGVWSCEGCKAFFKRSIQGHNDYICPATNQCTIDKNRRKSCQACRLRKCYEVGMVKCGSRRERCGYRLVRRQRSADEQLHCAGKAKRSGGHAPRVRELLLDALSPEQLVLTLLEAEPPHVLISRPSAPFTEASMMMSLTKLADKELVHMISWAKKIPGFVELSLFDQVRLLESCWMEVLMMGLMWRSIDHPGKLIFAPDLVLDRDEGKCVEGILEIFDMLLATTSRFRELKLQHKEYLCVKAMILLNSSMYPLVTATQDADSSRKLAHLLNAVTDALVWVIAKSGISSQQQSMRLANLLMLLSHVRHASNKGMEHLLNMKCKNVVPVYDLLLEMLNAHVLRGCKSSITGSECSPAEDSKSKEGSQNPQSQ
UniProt P23204, whole entry: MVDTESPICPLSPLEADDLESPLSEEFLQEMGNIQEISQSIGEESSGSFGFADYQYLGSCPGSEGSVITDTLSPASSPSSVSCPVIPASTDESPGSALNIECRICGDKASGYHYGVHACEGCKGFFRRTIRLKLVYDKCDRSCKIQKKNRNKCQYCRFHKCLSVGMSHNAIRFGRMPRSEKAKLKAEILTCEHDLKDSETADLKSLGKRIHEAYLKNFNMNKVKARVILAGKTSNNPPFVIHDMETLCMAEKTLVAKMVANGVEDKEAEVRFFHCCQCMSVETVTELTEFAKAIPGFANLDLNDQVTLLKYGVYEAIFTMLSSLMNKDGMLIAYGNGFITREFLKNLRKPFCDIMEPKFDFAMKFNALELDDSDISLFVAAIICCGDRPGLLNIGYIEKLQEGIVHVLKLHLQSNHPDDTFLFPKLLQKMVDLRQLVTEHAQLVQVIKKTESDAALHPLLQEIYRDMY

Compound | target | assay | test system | setting | endpoint | result
C=C(C)COc1ccc2c(c1)CC[C@@H]1[C@H]3C/C(=N\O)C(=O)[C@@]3(C)CC[C@@H]21 | NR3C1 | nuclear translocation, agonist, enzyme fragment complementation | – | – | EC50 | > 9 µM
O=C(c1ccc(OCCF)cc1)C1CCN(C2Cc3ccccc3CC2O)CC1 (single isomer, unassigned) | SIGMAR1 (Cavia porcellus, UniProt Q60492) | radioligand displacement | – | with: (+)-[3H]pentazocine | Ki | 7.38 ± 1.24 µM
C[C@]12CC[C@H]3c4ccc(O)cc4CC[C@@H]3[C@H]1C/C(=N/O)[C@H]2O | NR3C1 | nuclear translocation, agonist, enzyme fragment complementation | – | – | EC50 | > 9 µM
CN1CC[C@@H]2C[C@@H]1c1cc(-c3ccc(C(F)(F)F)cc3)ccc12 | ADRA2C (Homo sapiens, UniProt P18825) | radioligand competition binding | – | – | Ki | 0.755 µM
CC(=O)O[C@H]1CC[C@]2(C)C(=CC[C@H]3[C@H]4C[C@H]5O[C@]6(CC[C@H](C)CN6)[C@H](C)[C@@H]5[C@]4(C)CC[C@@H]32)C1 | NR3C1 | nuclear translocation, agonist, enzyme fragment complementation | – | – | EC50 | > 9 µM
Nc1c(N=Nc2ccc(Oc3ccc(N=Nc4cc(S(=O)(=O)O)c5ccccc5c4N)cc3)cc2)cc(S(=O)(=O)O)c2ccccc12 | Cystine/glutamate transporter, with SLC3A2 (SLC7A11, Homo sapiens, UniProt Q9UPY5) | L-glutamate uptake, inhibitor | SNB-19 | with: 3H-L-glutamate | Ki | 11 ± 1.3 µM
CC(=O)O[C@H]1CC[C@@]2(C)C(=CC[C@@H]3[C@@H]4CC[C@H](c5cc(C(F)(F)F)n(C(C)=O)n5)[C@]4(C)CC[C@@H]32)C1 | NR3C1 | nuclear translocation, agonist, enzyme fragment complementation | – | – | EC50 | > 9 µM
Cc1cc(C)c2nc3s/c(=C\c4ccc(-c5ccccc5C(=O)O)o4)c(=O)n3c2c1 | PTPRR (Homo sapiens, UniProt Q15256) | phosphatase activity, inhibitor | – | with: OMFP | IC50 | 20 µM
C[C@H](CCC(=O)O)[C@H]1CC[C@@H]2[C@H]3CC[C@H]4C[C@H](O)CC[C@@]4(C)[C@@H]3CC[C@@]21C | NR3C1 | nuclear translocation, agonist, enzyme fragment complementation | – | – | EC50 | > 9 µM
O=c1/c(=C/c2ccc(-c3ccccc3[N+](=O)[O-])o2)sc2nc3cc(Br)cnc3n12 | PTPN22 (Homo sapiens, UniProt Q9Y2R2) | phosphatase activity, inhibitor | – | with: OMFP | IC50 | ~100 µM
CN1CCN(c2ccc3c(c2)[C@H]2C[C@H]3CCN2S(=O)(=O)c2cc(Cl)cc(Cl)c2)CC1 | ADRA2A (Homo sapiens, UniProt P08913) | radioligand competition binding | – | – | Ki | 0.162 µM
C[C@H]1[C@H](C)CC[C@]2(C(=O)O)CC[C@]3(C)C(=CC[C@@H]4[C@]5(C)C[C@H](O)[C@@H](O)[C@@](C)(CO)[C@@H]5[C@H](O)C[C@@]43C)[C@H]12 | NR3C1 | nuclear translocation, agonist, enzyme fragment complementation | – | – | EC50 | > 9 µM
O=C1C(=Cc2ccc(O)c(O)c2)Oc2ccccc21 | SPHK2 (Homo sapiens, UniProt Q9NRA0) | inhibitor, FlashPlate | – | – | Ki | 20 µM
CCCCCCCC(=O)OCC(COP(=O)(O)OC1C(O)C(O)C(OP(=O)(O)O)C(OP(=O)(O)O)C1O)OC(=O)CCCCCCC (stereo not shown) | 1-phosphatidylinositol 4,5-bisphosphate phosphodiesterase delta-1, PH domain (Plcd1, Rattus norvegicus, UniProt P10688) | membrane binding, sedimentation | LUVs without PtdSer | – | Kd | 1.3 ± 0.2 µM
COc1cc(CC(=O)NCC(NC(=O)C(CCCNC(=O)c2cccc(I)c2)NC(=O)C(Cc2ccc(C(F)(F)P(=O)(O)O)cc2)NC(=O)c2ccc(C)c(Br)c2)C(N)=O)ccc1O (stereo not shown) | PTPN1 (Homo sapiens, UniProt P18031) | enzyme activity, inhibitor | – | – | Ki | 0.63 µM
O=C1C=C(NCCc2cc(Br)c(O)c(Br)c2)C(=O)c2ncccc21 | PRKCI (Homo sapiens, UniProt P41743) | SPR | – | – | Kd | 58.1 µM
CC1=Cc2ccccc2C12CCN(C1Cc3ccccc3CC1O)CC2 (single isomer, unassigned) | SIGMAR1 (Homo sapiens, UniProt Q99720) | binding, radioligand displacement | – | with: [3H](+)-pentazocine | Ki | 0.47 ± 0.23 µM
O=c1c(O[C@@H]2O[C@H](CO)[C@@H](O)[C@H](O)[C@H]2O)c(-c2cc(O)c(O[C@@H]3O[C@H](CO)[C@@H](O)[C@H](O)[C@H]3O)c(O)c2)oc2cc(O)cc(O)c12 | ESR2 (Homo sapiens, UniProt Q92731) | DNA binding array formation, agonist | PRL-HeLa expressing GFP-ESR2 | 1 h | EC50 | 2.01 µM
CCCCCCCCCCCCCCCC(=O)O | Ppara (Mus musculus, UniProt P23204) | coactivator recruitment, agonist, biolayer interferometry, measured: PGC-1alpha peptide | – | pH 7.4, 25 °C, 0.1% fatty acid-free BSA | EC50 | 190 µM

Some of these lines once more:
Compound | target | assay | test system | setting | endpoint | result
O=C1C(=Cc2ccc(O)c(O)c2)Oc2ccccc21 | SPHK2 (Homo sapiens, UniProt Q9NRA0) | inhibitor, FlashPlate | – | – | Ki | 20 µM
CCCCCCCC(=O)OCC(COP(=O)(O)OC1C(O)C(O)C(OP(=O)(O)O)C(OP(=O)(O)O)C1O)OC(=O)CCCCCCC (stereo not shown) | 1-phosphatidylinositol 4,5-bisphosphate phosphodiesterase delta-1, PH domain (Plcd1, Rattus norvegicus, UniProt P10688) | membrane binding, sedimentation | LUVs without PtdSer | – | Kd | 1.3 ± 0.2 µM
